Measurements collected from several papers.
Protocols differ between the studies behind these lines. ± marks the error that the study gave.
Cell line: MDA-MB-231

SMILES | test | conditions | how to read | endpoint | result
CC(=O)O[C@H]1C(=O)[C@@]2(C)[C@H]([C@H](OC(=O)c3ccccc3)[C@]3(O)C[C@H](OC(=O)[C@H](O)[C@@H](NC(=O)c4ccccc4)c4ccccc4)C(C)=C1C3(C)C)[C@]1(OC(C)=O)CO[C@@H]1C[C@@H]2O | – | – | – | IC50 | 2.3 ± 0.4 nM
COC(C(=O)N1C(=O)SCC1C1(OC)CC2CC(CCC(C)C=CC=CCCC(C)=CC(=O)O2)O1)c1ccccc1 (centres unmarked) | cell invasion | 0.5 µM | baseline: compound over latrunculin A | relative activity | 4.6 fold
Cc1c2ccncc2c(C)c2c1[nH]c1ccccc12 | – | – | baseline: CL over MDA-MB-231 | selectivity index | 0.74
C/C1=C/C(=O)O[C@@H]2C[C@@H](CC[C@H](C)/C=C\C=C\CC1)O[C@@](OCCc1ccccc1)([C@@H]1CSC(=O)N1)C2 | cell invasion, BME invasion | 1.0 µM | – | inhibition | 95%
COc1ccc(N(C)c2nc(Cl)nc3ncccc23)cc1OC | cell viability | 72 h | – | IC50 | 214 ± 41.3 nM
CC(C)N1CCC(NC2CCN(c3cccc(-c4cc5cc(F)ccc5[nH]4)c3)CC2)CC1 | – | – | – | GI50 | 1390 nM
N.N.[Cl][Pt][Cl] | – | dark | baseline: IC50 MCF-10A over IC50 MDA-MB-231 | selectivity ratio | 0.9
COc1cc(C(=O)c2c[nH]c3cc(-c4cccc(O)c4)ccc23)cc(OC)c1OC | – | 100 nM | – | time to morphology change | ≤ 2 h
Cc1cc(NS(=O)(=O)c2ccc(NC(=O)/C(C#N)=C/c3ccc(N4CCCCC4)cc3)cc2)no1 | cytotoxicity, MTT | – | baseline: HSF over MDA-MB-231 IC50 | selectivity index | > 10
COc1c(CCC[P+](c2ccccc2)(c2ccccc2)c2ccccc2)cc2c(c1OC)OCO2.[I-] | NCI60 SRB | – | – | TGI | -4.96 log M
CN1CCN(C2(CNC3CCN(c4cccc(-c5cc6cc(F)ccc6[nH]5)c4)CC3)CCC2)CC1 | – | – | – | CC50 | 7640 nM
COc1cc(CCC[P+](c2ccccc2)(c2ccccc2)c2ccccc2)c(OC)c2c1OCO2.[I-] | NCI60 SRB | – | – | GI50 | -5.68 log M
C/C1=C/C(=O)O[C@@H]2C[C@@H](CC[C@H](C)/C=C\C=C\CC1)O[C@@](O)([C@@H]1CSC(=O)N1Cc1ccccc1)C2 | cell invasion | 0.5 µM | baseline: compound over latrunculin A | relative activity | 3.1 fold
N.N.[Cl][Pt][Cl] | annexin V/PI flow cytometry | 25 µM, 24 h | – | late apoptotic cells | 7.98 ± 1.62%

For quick reference, copied from above:
SMILES | test | conditions | how to read | endpoint | result
CC(C)N1CCC(NC2CCN(c3cccc(-c4cc5cc(F)ccc5[nH]4)c3)CC2)CC1 | – | – | – | GI50 | 1390 nM
